Experimental data collected from several papers.
Numbered parts are unrelated; each lists some results of a single study. Changes are numbered by the printed parent chain.

Series 1 — technique: RNA Bind-n-Seq; form: RNA; sample: in vitro; tested at: 200 nM; setting: whole 134-nt RNA, ends assumed; added: 150 mM KCl; relative to: input library; reading: higher = stronger binding
Target: Fragile X messenger ribonucleoprotein 1, C-terminal low-complexity region (Fmr1, Mus musculus, UniProt P35922)
Shared flanks, not repeated: GGGAGUUCUACAGUCCGACGAUC … UGGAAUUCUCGGGUGUCAAGG
Oligonucleotide	log2 enrichment
CAAGUCCUGUGCUACACAUCGUAUGUACCGAAUCGGUUUGGGGUUUGGGGUUUGGAAAGUAUUAUGUUACGCCGUUCGGAUCUGCACUUC	-0.128
ACCAUGCAGGUGGGCAUCUUUGGGAAGUGGGGCAAGGGGGGGAUAGGGAGGAGGGUAACACUUUGGGAACAGGUGGUCCCAGGUCGUUUC	0.812
CUCAAGUCCUGUGCUACACAUCGUAUGUACCGAAUCGGGGAAGGGGAAGGAAGGAAAGUAUUAUGUUACGCCGUUCGGAUCUGCACUUCC	-0.133
AAGUCCUGUGCUACACAUCGUAUGUACCGAAUCGGAAAAGGGAAAAGGAAAAGGGGAAAGUAUUAUGUUACGCCGUUCGGAUCUGCACUU	-0.482
UUUUAUUCUUCCAUCUUUUCCCACAGGUGGCAGCUGCCAACAAGAAGCAUUAGAACAAACCAUGCUGGGUUAAUAAAUUGCCUCAUUCGU	-0.0822
UGGCCCUGGUGGCAUGCGGGGAGGAAGAGGUGGCCUCAUGGAUCGUGGUGGUCCCGGUGGAAUGUUCAGAUGUGGCCGUGGUGGAGACAG	0.216
CACAGACAACACGCACCCACACAGACACAGAGGGAAGGGGUUGGGAUGGGGACAGGGUGCACAAAAGGGCGGGGUAGGACCCCAGCCCCU	1.25
GCAGGAAGUAAAAACAAAUGGAAAUGCUUCGGAUAUUGGCAGGGGUGGGGGUUGCUAAGGAAAGGGUGGGAUGGGAGUGGGUAAAGAGUU	1.03
UCAUUAGAAGAUCUAAUUGAGAGAGAGGUAACUGGUAUCCUUUUCCUACCAUAAAAACUGAAAGCAGUAUUUAUUGUGAAAUUCUAAUAC	-0.101
UUCCUCAAGUCCUGUGCUACACAUCGUAUGUACCGAAUCGGUGGUGGAGGAAAGUAUUAUGUUACGCCGUUCGGAUCUGCACUUCCAGCA	-0.66
CCUGUGCUACACAUCGUAUGUACCGAAUCGGGUUUUUUUGGUUUUUUUGGUUUUUUUGGGGAAAGUAUUAUGUUACGCCGUUCGGAUCUG	-1.02
UGUUUUAAGGUUGCCAACUUUGCAACAAUGGAAGAUGAAGAAGAGCUAGAAGAGCGUCCUCACAAGGACUGGGAUGAGAUCAUUCCAGAG	-1.29
CUGUGCUACACAUCGUAUGUACCGAAUCGGGCCCCCCCGGCCCCCCCGGGGCCCCCCCGGGAAAGUAUUAUGUUACGCCGUUCGGAUCUG	-0.874
CUCAAGUCCUGUGCUACACAUCGUAUGUACCGAAUCGGGAGGGUUUGGGAGGGAAAGUAUUAUGUUACGCCGUUCGGAUCUGCACUUCCA	1.35

Series 2 — target: CCNB3, cyclin fold, Cln2 fusion (human); technique: yeast growth competition, sequencing; sample: yeast; setting: weak parent motif; relative to: not given; reading: higher = stronger binding
Parent: INSM1 docking peptide (human); PKAIRKLHFEDEV; partner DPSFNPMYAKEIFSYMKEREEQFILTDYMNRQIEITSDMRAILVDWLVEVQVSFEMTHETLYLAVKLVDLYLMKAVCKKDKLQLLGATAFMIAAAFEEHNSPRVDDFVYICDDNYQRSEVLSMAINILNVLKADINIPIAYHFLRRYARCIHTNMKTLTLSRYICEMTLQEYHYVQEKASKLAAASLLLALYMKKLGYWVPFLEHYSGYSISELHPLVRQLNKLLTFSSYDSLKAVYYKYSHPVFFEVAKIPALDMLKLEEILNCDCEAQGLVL
Variant	normalised enrichment score
PKAIRKLAFEDEV [H8A]	0.228
PKAIRKLDFEDEV [H8D]	0.135
PKAIRWLHFEDEV [K6W]	0.231
PKAIRKRHFEDEV [L7R]	0.254
PKAIRKLHHEDEV [F9H]	0.16
PKAIRKLHSEDEV [F9S]	-0.0788
PKPIRKLHFEDEV [A3P]	0.214
PKAIRKLTFEDEV [H8T]	0.731
PKAIRKLHFEHEV [D11H]	0.19

Series 3 — technique: protein binding microarray; form: double-stranded DNA, one strand shown; sample: in vitro; tested at: not given; relative to: not given; reading: higher = stronger binding
Target: Histone acetyltransferase KAT6A, winged helix 2, GST fusion (KAT6A, Homo sapiens, UniProt Q92794, residues 85-181)
Setting: 8-mer, flanks averaged, mean of 2 arrays, mostly near background
Residues (chain): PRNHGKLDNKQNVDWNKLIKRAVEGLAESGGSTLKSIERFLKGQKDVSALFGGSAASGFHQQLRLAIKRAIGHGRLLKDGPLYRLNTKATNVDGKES
Oligonucleotide	E-score
CCGACGGA	0.053
TCCCTGAA	0.0685
ACGAGCCT	-0.0933
AAAAGGGA	0.019
ACTCATGC	-0.205
CCCAGGTC	-0.106
ACCCCGCA	0.0563
GCGGGAGA	0.173
ATGAGGCG	-0.00326

Further values, each from its own experiment
Substance	target	assay	system	conditions	how to read	measurement	value
PhoQ, residues 284 288 289 292 302 303 AQGLTV	PhoP, residues 12 14 15 18 19 STWGI (Escherichia coli, UniProt P23836)	Sort-seq, item: YFP reporter	E. coli	PhoQ-PhoP variant library, added: 10 µM Mg2+	relative to: high Mg2+ state, higher = stronger signaling	fold induction	1.2

Some of these lines once more (series 1):
Oligonucleotide	log2 enrichment
UUUUAUUCUUCCAUCUUUUCCCACAGGUGGCAGCUGCCAACAAGAAGCAUUAGAACAAACCAUGCUGGGUUAAUAAAUUGCCUCAUUCGU	-0.0822
UGGCCCUGGUGGCAUGCGGGGAGGAAGAGGUGGCCUCAUGGAUCGUGGUGGUCCCGGUGGAAUGUUCAGAUGUGGCCGUGGUGGAGACAG	0.216
CACAGACAACACGCACCCACACAGACACAGAGGGAAGGGGUUGGGAUGGGGACAGGGUGCACAAAAGGGCGGGGUAGGACCCCAGCCCCU	1.25
